Assay results from different studies.
Compare with care: the assays were run in different laboratories. Values joined by “and” are separate records of one study, mostly repeats; a detail may differ. ± gives the spread as reported. Converted amounts (≈) assume the structure as drawn.
Sequence of UniProt P04062 (whole entry, unmodified, looked up): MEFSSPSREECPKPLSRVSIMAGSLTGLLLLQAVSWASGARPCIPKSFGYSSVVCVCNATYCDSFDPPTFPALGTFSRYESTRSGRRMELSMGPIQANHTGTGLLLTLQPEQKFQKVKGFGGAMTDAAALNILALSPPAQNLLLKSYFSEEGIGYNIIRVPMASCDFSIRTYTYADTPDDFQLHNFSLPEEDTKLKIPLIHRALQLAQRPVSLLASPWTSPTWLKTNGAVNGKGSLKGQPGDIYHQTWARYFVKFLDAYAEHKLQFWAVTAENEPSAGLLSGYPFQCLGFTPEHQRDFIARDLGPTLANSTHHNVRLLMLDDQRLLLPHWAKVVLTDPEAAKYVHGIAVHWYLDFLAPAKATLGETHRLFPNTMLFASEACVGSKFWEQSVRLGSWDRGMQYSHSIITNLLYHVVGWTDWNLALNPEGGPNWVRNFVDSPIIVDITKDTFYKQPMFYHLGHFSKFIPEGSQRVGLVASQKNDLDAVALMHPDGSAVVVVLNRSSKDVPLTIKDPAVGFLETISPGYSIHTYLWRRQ

`Cc1cccc(-c2cccc(C)n2)n1.Cc1cccc(-c2cccc(C)n2)n1.F[P-](F)(F)(F)(F)F.F[P-](F)(F)(F)(F)F.[Ru+2].c1ccc2c(-c3nc4c5cccnc5c5ncccc5c4[nH]3)c3ccccc3cc2c1`: “singlet oxygen quantum yield” 0.08 (aerated acetonitrile; 298 K; relative to: Ru(bpy)3(PF6)2).
The compound remaining of `CC[C@H](C)[C@H](NC(=O)[C@H](CCC(N)=O)NC(=O)[C@H](CC(C)C)NC(=O)[C@H](CC(N)=O)NC(=O)[C@H](Cc1c[nH]cn1)NC(=O)[C@H](CCCCN)NC(=O)[C@@H](NC(=O)[C@@H](N)C(C)C)[C@@H](C)O)C(=O)N[C@@H](COP(=O)(O)O)C(=O)N[C@@H](CCC(N)=O)C(=O)N[C@@H](COP(=O)(O)O)C(=O)N[C@@H](Cc1ccc(O)cc1)C(=O)O` is reported as no less than 95% (metabolic stability, mass spectrometry; mouse, liver microsomes; 1 h).
The relative translation of `COc1ccc(C(=O)OC2CCN(C)CC2)cc1` is reported as 100% (Trypanosoma cruzi; reporter mRNA translation, inhibitor, refers to: capped polyadenylated Renilla luciferase mRNA; cell-free extract; concentration not given; relative to: control RNA).
`Cc1c(Cc2cccc(OC(C)(C)C(=O)O)c2)c2ccc(C(=O)N[C@@H](C)c3ccc(F)c(C(C)(C)C)c3)cc2n1CC(C)C` gave a half-life of greater than 1 h (human liver microsomes; 1 µM, together with: microsomes 1 mg/mL).
`CC(C)(O)c1ncc([S@](N)(=O)=NC(=O)Nc2c3c(cc4c2CCC4)CCC3)s1` — result for “subjects with adverse events”: 2% (refers to: Psychiatric disorders; healthy human volunteers; oral, dose not given, single dose, all active arms).
The AUC(0-t) of `O=C(c1ccccc1)N1C(c2ccc(OCC3CCN(CCCF)C3)cc2)c2ccc(O)cc2CC12CC2` (stereo not shown) is reported as 2480 ng·h/mL and 3430 ng·h/mL (C57BL/6J mouse, plasma; oral, 25 mg/kg).
For `CO.Cc1ccc2c(Cl)cc(Cl)c([O-])c2n1.Cc1ccc2c(Cl)cc(Cl)c([O-])c2n1.[Co+2].c1ccc2nc3c4cccnc4c4ncccc4c3nc2c1`, the body weight was 18.8 ± 1.3 g (nude mouse, HeLa xenograft; 2.0 mg/kg, start of treatment).
With `CN(O)C(=O)CCC(=O)NCCCN(CCCCN(CCCNC(=O)CCC(=O)N(C)O)C(=O)CCC(=O)N(C)O)C(=O)CCC(=O)N(C)O.[89Zr]` the tracer uptake was 0.01 %ID/g (mouse, blood; 4 h).
With `Cc1ccccc1-c1ccc(COCCCCCN2C[C@H](O)[C@@H](O)[C@H](O)[C@H]2CO)cc1` the IC50 was 0.07 µM (Lysosomal acid glucosylceramidase (GBA1, Homo sapiens, UniProt P04062, R534H); inhibitor, 4MU-β-D-glucopyranoside; together with: 4MU-β-D-glucopyranoside).
The Cmax of `CCCCCCCOc1ccc(CC[C@](N)(CO)COP(=O)(O)O)cc1C(F)(F)F` is reported as 0.722 ng/mL (healthy human males, plasma; 0.25 mg, day 1).
The activity concentration of `CC(C)C[C@H](NC(=O)[C@H](Cc1ccc(O)cc1)NC(=O)[C@@H](CCCNC(=N)N)NC(=O)[C@@H](CO)NC(=O)[C@H](Cc1ccccc1)NC(=O)[C@H](CC1CCCCC1)NC(=O)[C@H](CC(=O)O)NC(=O)CN1CCN(CC(=O)O)CCN(CC(=O)O)CCN(CC(=O)O)CC1)C(=O)N[C@@H](Cc1c[nH]c2ccccc12)C(=O)N[C@@H](CO)C(=O)O` [copper-64 labelled] is reported as 90.7 Bq/mL and 132 Bq/mL and 151 Bq/mL and 108 Bq/mL and 69.4 Bq/mL and 72.8 Bq/mL (human, brain; concentration not given, 3 h).
`COc1cc(CN(C)CC2CCCN(CCc3ccccc3F)C2)cc(Cl)c1OC` (stereo not shown) has a relative translation of 100% (Trypanosoma cruzi; reporter mRNA translation, inhibitor, refers to: capped polyadenylated Renilla luciferase mRNA; cell-free extract; concentration not given; relative to: control RNA).
The solubility of `O=c1c2ccccc2[se]n1CCCCCCn1[se]c2ccccc2c1=O` is reported as 510 ± 20 µg/mL (≈ 1070 µM) (shake-flask, RP-HPLC; Tween 80; 24 h, 25 °C).
For `Cc1ncsc1-c1ccc(CNC(=O)[C@@H]2C[C@@H](O)CN2C(=O)[C@@H](NC(=O)COCC(C)(COCCOCCOCCNC(=O)C[C@@H]2N=C(c3ccc(Cl)cc3)c3c(sc(C)c3C)-n3c(C)nnc32)COCCOCCOCCNC(=O)C[C@@H]2N=C(c3ccc(Cl)cc3)c3c(sc(C)c3C)-n3c(C)nnc32)C(C)(C)C)cc1`, the plasma concentration was 5410 ng/mL (male C57BL/6 mice, plasma; intravenous, 5 mg/kg, 1 h, sample diluted 20-fold).
For `COCC1CN(C2CCN(c3cc(OC)c(Nc4ncc(Br)c(Nc5ccc6c(c5P(C)(C)=O)OCCO6)n4)cc3C)CC2)C1`, the Cmax was 196 ng/mL (EGFR-mutant NSCLC patients, plasma; oral, 30 mg single dose, geometric mean).
`O=C(O)CN1CCN(CC(=O)O)CCN(CC(O)CN(CC(O)CN2CCN(CC(=O)O)CCN(CC(=O)O)CCN(CC(=O)O)CC2)C[C@H](O)[C@@H](O)[C@H](O)[C@H](O)CO)CCN(CC(=O)O)CC1` (stereo partly shown) gave a log K of 9.39 (pH-potentiometry, spectrophotometry, refers to: CuH2L; 25 °C, 0.15 M NaCl).
`Fc1cccc(-n2cc(-c3ccccc3)nc2NCc2ccc(C(F)(F)F)c(F)c2)c1` has an AUC(0-last) of 173000 ng·h/mL (CD-1 mice, male, intestine; intraperitoneal, 25 mg/kg, single dose).
`Nc1nnc(NCc2c(Cl)cccc2Oc2ccccc2)[nH]1` — result for blood glucose: “increased” (CD1 mice; ip, 3 mg/kg daily, 1 weeks; relative to: normal mice).
`O=C(Nc1cnccc1-c1ccc([18F])nc1)c1ccnc(NC(=O)C2CC2)c1` has an SUV of 0.25 ± 0.13 (FVB/NJ mouse, both sexes, brain; intravenous, 3 min post-injection, together with: P-gp inhibitor tariquidar 15 mg/kg iv).
